Measurements collected from several papers.
Lines come from different studies, so protocols differ. ± marks the error that the study gave.
Lypla1: Acyl-protein thioesterase 1 (Lypla1, Mus musculus, UniProt P97823)
Chain of UniProt P97823 (whole entry, looked up): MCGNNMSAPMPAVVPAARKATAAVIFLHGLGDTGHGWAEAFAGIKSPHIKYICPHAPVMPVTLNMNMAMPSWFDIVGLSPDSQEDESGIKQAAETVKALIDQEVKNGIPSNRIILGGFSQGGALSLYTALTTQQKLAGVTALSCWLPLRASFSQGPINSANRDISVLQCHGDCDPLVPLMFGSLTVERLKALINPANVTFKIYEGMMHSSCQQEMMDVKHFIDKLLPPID
PARP1: Poly [ADP-ribose] polymerase 1 (PARP1, Homo sapiens, UniProt P09874)
Chain of UniProt P09874 (whole entry, looked up): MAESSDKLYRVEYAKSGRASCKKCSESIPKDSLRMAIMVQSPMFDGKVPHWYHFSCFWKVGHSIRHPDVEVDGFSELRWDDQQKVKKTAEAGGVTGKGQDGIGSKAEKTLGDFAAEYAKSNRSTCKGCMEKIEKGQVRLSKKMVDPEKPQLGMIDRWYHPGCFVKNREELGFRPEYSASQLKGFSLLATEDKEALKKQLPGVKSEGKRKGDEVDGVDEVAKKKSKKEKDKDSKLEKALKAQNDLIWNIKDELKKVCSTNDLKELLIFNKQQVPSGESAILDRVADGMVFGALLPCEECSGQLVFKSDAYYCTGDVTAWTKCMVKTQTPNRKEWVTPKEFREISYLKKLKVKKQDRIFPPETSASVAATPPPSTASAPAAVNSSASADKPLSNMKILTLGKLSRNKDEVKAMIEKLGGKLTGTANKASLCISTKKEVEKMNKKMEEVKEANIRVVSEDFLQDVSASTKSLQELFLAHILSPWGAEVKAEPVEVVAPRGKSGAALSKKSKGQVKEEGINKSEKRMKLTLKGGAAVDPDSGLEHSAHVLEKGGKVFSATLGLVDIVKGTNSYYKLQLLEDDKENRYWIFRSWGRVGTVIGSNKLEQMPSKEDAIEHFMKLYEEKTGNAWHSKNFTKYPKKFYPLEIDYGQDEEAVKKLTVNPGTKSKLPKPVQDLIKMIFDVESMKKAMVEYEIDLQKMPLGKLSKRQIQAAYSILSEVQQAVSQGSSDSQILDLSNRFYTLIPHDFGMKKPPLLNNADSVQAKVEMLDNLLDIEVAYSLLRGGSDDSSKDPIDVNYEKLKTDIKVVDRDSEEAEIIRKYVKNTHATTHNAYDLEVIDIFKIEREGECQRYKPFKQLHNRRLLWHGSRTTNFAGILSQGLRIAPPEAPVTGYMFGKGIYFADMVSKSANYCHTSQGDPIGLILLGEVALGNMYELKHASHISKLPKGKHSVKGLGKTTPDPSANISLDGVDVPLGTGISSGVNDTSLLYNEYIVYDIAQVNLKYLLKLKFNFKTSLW
HDAC3: Histone deacetylase 3 (HDAC3, Homo sapiens, UniProt O15379)
Chain of UniProt O15379 (whole entry, looked up): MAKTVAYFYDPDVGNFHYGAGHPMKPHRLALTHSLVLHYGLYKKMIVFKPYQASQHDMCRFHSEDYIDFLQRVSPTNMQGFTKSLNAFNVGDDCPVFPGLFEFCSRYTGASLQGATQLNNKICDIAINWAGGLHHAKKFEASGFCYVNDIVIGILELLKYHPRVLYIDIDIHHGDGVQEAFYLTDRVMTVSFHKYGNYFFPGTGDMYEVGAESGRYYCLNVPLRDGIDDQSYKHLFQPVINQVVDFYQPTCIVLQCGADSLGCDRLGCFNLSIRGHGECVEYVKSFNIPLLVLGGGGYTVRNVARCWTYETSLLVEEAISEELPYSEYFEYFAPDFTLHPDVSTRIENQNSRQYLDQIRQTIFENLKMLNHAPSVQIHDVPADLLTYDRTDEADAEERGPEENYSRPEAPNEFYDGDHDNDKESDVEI
GALR2: Galanin receptor type 2 (GALR2, Homo sapiens, UniProt O43603)
Chain of UniProt O43603 (whole entry, looked up): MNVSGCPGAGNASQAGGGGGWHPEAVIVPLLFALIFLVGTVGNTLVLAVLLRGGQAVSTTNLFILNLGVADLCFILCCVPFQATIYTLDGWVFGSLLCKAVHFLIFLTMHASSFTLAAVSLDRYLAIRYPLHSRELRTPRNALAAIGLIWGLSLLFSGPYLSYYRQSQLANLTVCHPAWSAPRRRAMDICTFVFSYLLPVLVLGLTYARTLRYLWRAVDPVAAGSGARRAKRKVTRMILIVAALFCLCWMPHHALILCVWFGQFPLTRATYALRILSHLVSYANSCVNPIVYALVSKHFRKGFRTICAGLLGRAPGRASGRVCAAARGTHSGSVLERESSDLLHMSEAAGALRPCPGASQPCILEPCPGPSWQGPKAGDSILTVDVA
Chain of UniProt Q16288 (whole entry, looked up): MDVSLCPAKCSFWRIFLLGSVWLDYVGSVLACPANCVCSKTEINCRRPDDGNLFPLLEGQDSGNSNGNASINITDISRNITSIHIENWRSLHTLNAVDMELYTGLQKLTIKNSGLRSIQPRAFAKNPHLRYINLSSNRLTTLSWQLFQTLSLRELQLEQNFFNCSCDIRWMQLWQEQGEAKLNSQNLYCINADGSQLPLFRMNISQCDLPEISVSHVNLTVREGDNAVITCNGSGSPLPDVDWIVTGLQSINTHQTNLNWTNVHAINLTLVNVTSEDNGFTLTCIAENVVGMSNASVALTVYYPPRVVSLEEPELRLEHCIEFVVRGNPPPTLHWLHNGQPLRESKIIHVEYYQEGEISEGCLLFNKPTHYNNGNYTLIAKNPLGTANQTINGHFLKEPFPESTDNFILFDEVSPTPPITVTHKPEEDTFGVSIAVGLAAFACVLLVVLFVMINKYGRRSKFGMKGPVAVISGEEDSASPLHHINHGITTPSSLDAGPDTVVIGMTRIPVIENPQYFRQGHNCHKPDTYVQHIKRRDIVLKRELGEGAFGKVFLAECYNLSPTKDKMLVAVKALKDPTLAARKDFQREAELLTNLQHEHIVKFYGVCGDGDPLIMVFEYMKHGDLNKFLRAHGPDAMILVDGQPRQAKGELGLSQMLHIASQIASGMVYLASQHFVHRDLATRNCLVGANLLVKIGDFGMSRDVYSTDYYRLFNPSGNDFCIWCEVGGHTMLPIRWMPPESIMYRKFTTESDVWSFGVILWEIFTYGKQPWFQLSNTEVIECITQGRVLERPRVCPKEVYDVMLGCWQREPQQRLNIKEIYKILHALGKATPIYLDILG
Chain of UniProt Q9NPI1 (whole entry, looked up): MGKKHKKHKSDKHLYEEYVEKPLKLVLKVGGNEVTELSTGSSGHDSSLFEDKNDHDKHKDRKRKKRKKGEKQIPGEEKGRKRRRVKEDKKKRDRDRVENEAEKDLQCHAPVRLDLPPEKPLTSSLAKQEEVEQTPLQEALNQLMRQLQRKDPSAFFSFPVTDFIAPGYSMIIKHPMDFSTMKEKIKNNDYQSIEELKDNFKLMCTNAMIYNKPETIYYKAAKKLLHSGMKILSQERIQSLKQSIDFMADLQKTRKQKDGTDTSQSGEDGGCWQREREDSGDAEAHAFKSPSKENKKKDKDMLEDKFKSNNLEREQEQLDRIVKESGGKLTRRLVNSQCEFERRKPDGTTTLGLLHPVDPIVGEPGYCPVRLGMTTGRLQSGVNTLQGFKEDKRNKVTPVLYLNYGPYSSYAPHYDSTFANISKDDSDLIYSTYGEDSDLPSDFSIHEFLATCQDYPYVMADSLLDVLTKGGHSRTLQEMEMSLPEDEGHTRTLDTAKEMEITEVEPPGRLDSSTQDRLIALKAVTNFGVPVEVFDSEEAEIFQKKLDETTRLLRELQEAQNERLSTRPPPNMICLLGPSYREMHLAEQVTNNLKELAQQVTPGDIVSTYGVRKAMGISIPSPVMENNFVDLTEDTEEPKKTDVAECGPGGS
Chain of UniProt Q9UGN5 (whole entry, looked up): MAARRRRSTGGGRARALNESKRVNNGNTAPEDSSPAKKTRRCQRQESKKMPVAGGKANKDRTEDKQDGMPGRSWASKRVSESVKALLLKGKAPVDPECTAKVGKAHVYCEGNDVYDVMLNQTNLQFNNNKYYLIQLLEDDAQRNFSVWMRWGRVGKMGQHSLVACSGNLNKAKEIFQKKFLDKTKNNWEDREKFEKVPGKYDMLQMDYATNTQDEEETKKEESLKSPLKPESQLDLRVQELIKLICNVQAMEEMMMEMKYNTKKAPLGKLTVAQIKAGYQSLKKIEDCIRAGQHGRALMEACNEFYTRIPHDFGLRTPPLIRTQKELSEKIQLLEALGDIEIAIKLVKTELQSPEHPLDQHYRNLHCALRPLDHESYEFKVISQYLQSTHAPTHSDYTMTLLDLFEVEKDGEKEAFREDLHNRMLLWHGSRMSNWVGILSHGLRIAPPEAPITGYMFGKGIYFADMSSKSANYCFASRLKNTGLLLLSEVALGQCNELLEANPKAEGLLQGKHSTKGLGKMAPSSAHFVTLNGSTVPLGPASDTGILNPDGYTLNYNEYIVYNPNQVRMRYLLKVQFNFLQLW
Chain of UniProt P50406 (whole entry, looked up): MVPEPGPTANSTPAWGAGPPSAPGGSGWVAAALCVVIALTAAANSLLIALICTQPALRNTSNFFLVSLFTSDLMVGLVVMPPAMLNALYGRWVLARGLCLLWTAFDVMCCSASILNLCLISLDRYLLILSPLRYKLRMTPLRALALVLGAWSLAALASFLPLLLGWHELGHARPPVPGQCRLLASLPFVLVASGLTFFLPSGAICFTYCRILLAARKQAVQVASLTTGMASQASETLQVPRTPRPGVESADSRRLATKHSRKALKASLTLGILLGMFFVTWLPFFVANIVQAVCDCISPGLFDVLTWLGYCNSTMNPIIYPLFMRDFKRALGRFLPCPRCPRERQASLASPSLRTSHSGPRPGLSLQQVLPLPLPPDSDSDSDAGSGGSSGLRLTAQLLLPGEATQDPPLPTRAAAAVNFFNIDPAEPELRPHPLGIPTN
Chain of UniProt P32247 (whole entry, looked up): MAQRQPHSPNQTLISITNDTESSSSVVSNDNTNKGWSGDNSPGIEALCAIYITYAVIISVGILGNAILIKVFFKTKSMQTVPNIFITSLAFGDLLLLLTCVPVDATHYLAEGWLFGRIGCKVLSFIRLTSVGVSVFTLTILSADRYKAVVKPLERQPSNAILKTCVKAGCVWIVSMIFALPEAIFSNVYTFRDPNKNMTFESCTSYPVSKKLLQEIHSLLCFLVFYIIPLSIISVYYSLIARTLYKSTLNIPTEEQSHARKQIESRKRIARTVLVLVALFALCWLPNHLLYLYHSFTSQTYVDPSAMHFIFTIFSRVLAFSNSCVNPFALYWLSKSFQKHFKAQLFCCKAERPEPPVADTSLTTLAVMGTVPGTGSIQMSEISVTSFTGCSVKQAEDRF

C=CCN(CC=C)C(=O)n1ccnn1 — inhibition (Lypla1; 1 µM): < 50%
Cc1cc(C(=O)NCCNC(=O)c2cccc(COc3ccccc3C(N)=O)c2)n[nH]1 — inhibition (PARP1; enzyme activity, inhibitor; 0.5 µM): 67%
CC(=O)C12NC(C)(C)CC1(C)C(=O)C1=C2c2c(c3c4n2C(C)(C)CC2=C4C4(CC(C)(C)NC(C)(C4)C2=O)CC3(C)C)C(=O)C(C)(C)N1 (single isomer, unassigned; (+)) — inhibition (SCN2A (Homo sapiens, UniProt Q99250); sodium current; HEK293T; 40 µM): 14 ± 0.01%
Cc1c(COc2cc(OCc3cccc(C#N)c3)c(CN3CCCC[C@@H]3C(=O)O)cc2Cl)cccc1-c1cccc(OCCCCCC(=O)NO)c1 — inhibition (HDAC3; enzyme activity, inhibitor; 1 µM): 93.8%
C=C(NC(=O)c1csc(-c2nc3c(cc2O)-c2nc(cs2)C(=O)NC(C(C)O)C(=O)NC(=C(C)OC)c2nc(cs2)C(=O)NC2c4nc(cs4)C(=O)NC(COC(=O)c4c5c6c(cccc6n4O)COC(=O)C(OC4CC(C)(O)C(N(C)C)C(C)O4)C2OC5)c2nc-3cs2)n1)C(N)=O (stereo not shown) — Tmax (ICR mice, Streptococcus pneumoniae ATCC 49169 infected, immunocompromised, blood; intravenous, 2 mg/kg/day once daily): 4.8 min
CCN(CC)C(=O)n1ccnn1 — inhibition (Lypla1; 1 µM): < 50%
O=C1c2sc(-c3ccc(N4CCC(CO)CC4)nc3F)nc2CCN1c1cccnc1 — inhibition (HTR6 (Homo sapiens, UniProt P50406); ligand displacement, radioligand; 1 µM): 4%
O=C(CC1CC2CCC1C2)NCCNC(=O)Cn1c(=O)[nH]c(=O)c2ccccc21 (stereo not shown) — inhibition (PARP1; enzyme activity, inhibitor; 0.104 µM): 86%
C=CC(=O)Nc1cccc(-c2cnc3[nH]cc(C(=O)NC(C)(C)C)c3n2)c1 — inhibition (TYK2 (Homo sapiens, UniProt P29597); enzyme activity, inhibitor; 0.1 µM): 40%
C[Si](C)(C)C[C@@H](CN)CC(=O)O — inhibition (GALR2; enzyme activity, inhibitor; 75 µM): -10%
Cc1ncsc1-c1ccc(C(C)NC(=O)C2CC(O)CN2C(=O)C(NC(=O)CCCCCCCCCCN2CCCC(Nc3ncc(Cl)c(Nc4ccccc4S(=O)(=O)C(C)C)n3)C2)C(C)(C)C)cc1 (stereo not shown) — log2 fold change (22Rv1; RNA-seq, refers to: ZFP62 mRNA; concentration not given; relative to: DMSO): -1.68
Nc1ncc(-c2cc(-c3cnn(CC(F)(F)F)c3)ncc2F)nc1C(=O)NC1CNCC(F)C1 (stereo not shown) — remaining binding (SBK1; KINOMEscan; 1 µM; relative to: DMSO control): 66%
COc1cc(-c2cn(C)c(=O)c3cnccc23)cc(OC)c1CN(C)C — inhibition (BRD7 (Homo sapiens, UniProt Q9NPI1); 1 µM): 87.4%
COC1CN([C@H]2CC[C@H]([C@@]3(C)Oc4c(Cl)cc(C(=O)NCc5c(SC)cc(C)[nH]c5=O)c(C)c4O3)CC2)C1 — log2 fold change (RNA-seq, refers to: CAMSAP3 mouse homolog; mouse, HT-1376 xenograft, whole blood; dose not given; relative to: vehicle): 2.93
COc1ccc(CN2CC(COc3ccc(C)c(F)c3)CC(F)(F)C2)cc1F (stereo not shown) — inhibition (DRD4 (Homo sapiens, UniProt P21917); ligand displacement, radioligand; 10 µM): 35%
CN(Cc1ccc(/C=C/C(=O)NO)cc1)CC12CC3CC(CC(C3)C1)C2 — inhibition (human MC4 receptor; agonist radioligand binding; 0.05 µM): 7%
O=C(CCCc1ccc2c(c1)OCCO2)NCCNC(=O)Cn1c(=O)[nH]c(=O)c2ccccc21 — inhibition (PARP2 (Homo sapiens, UniProt Q9UGN5); enzyme activity, inhibitor; 0.104 µM): 100%
O=C1c2sc(-c3ccc(N4CCC(F)C4)nc3F)nc2CCN1c1cccnc1 (stereo not shown) — inhibition (BRS3 (Homo sapiens, UniProt P32247); ligand displacement, radioligand; 1 µM): 1%
C=CC(=O)Nc1cccc(Cn2ncc3cnc(Nc4cnn(CCOC)c4)nc32)c1 — percent of control (RIOK1 human; binding, KINOMEscan; 100 nM; lower = stronger binding): 13%
C[Si]1(C[C@H](CN)CC(=O)O)CCCC1 — inhibition (GALR2; enzyme activity, inhibitor; 70 µM): -12%
Cc1nn(-c2cccc(N)c2)c(=O)c2cnc(Nc3ccc(N4CCNCC4)cc3)nc12 — IC50 (NTRK3 (Homo sapiens, UniProt Q16288); kinase activity, inhibitor, SelectScreen kinase profiling): > 10000 nM
CNS(=O)(=O)Nc1nccc(Cc2c(C)c3ccc(Oc4ncccc4F)cc3oc2=O)c1F — IC50 (RERF-LC-MS; cell viability, CellTiter-Glo; 7 days): 521 nM
Cc1c(COc2cc(OCc3cccc(C#N)c3)c(CNC(CO)(CO)CO)cc2Cl)cccc1-c1cccc(OCCCCCCC(=O)NO)c1 — inhibition (HDAC3; enzyme activity, inhibitor; 1 µM): 95.8%
C=C1CC[C@H](OCCCNC(=O)CCOCCOCCOCCOCCOCCOCCOCCOCCOCCOCCOCCOCCOCCOCCOCCOCCOCCOCCOCCOCCOCCOCCOCCOCCOCCOCCOCCOCCOCCOCCOCCOCCOCCOCCOCCOCCNC(=O)CCN2C(=O)CC(SC[C@H](NC(=O)[C@H](Cc3ccccc3)NC(=O)[C@H](CC(N)=O)NC(=O)[C@H](Cc3c[nH]cn3)NC(=O)[C@@H](NC(=O)[C@H](CC(=O)O)NC(=O)[C@H](CCC(N)=O)NC(=O)[C@H](CC(C)C)NC(=O)[C@H](CCCCN)NC(=O)[C@H](CCCCN)NC(=O)[C@H](CCCNC(=N)N)NC(=O)[C@H](CC(C)C)NC(=O)[C@H](Cc3c[nH]c4ccccc34)NC(=O)[C@H](CCC(=O)O)NC(=O)[C@@H](NC(=O)[C@H](CCCNC(=N)N)NC(=O)[C@H](CCC(=O)O)NC(=O)[C@H](CCSC)NC(=O)[C@H](CO)NC(=O)[C@H](CC(N)=O)NC(=O)[C@H](CC(C)C)NC(=O)[C@H](Cc3c[nH]cn3)NC(=O)[C@H](CCCCN)NC(=O)CNC(=O)[C@H](CC(C)C)NC(=O)[C@H](CC(N)=O)NC(=O)[C@H](Cc3c[nH]cn3)NC(=O)[C@H](CCSC)NC(=O)[C@H](CC(C)C)NC(=O)[C@H](CCC(N)=O)NC(=O)[C@@H](NC(=O)[C@H](CCC(=O)O)NC(=O)[C@H](CO)NC(=O)[C@@H](NC(=O)[C@@H](N)CO)C(C)C)[C@@H](C)CC)C(C)C)C(C)C)C(=O)O)C2=O)C/C1=C/C=C1\CCC[C@]2(C)[C@@H]([C@H](C)CCCC(C)(C)O)CC[C@@H]12 (stereo partly shown) — Tmax (male Sprague-Dawley rat, plasma; subcutaneous, 100 µg/kg, single dose): 79.8 min
CCOC(=O)C12CC1C(n1cnc3c(NC)nc(C#Cc4ccc(Br)s4)nc31)C(O)C2O (stereo not shown) — inhibition (SLC6A4 (Homo sapiens, UniProt P31645); ligand displacement, radioligand; 10 µM): 9%

Repeated from above:
Cc1c(COc2cc(OCc3cccc(C#N)c3)c(CNC(CO)(CO)CO)cc2Cl)cccc1-c1cccc(OCCCCCCC(=O)NO)c1 — inhibition (HDAC3; enzyme activity, inhibitor; 1 µM): 95.8%
